{"data": "Assay results from different studies", "target": "Serine/threonine-protein kinase MRCK gamma (CDC42BPG, Homo sapiens, UniProt Q6DT37)", "note": "Each line is one published result; not all experiments were run side by side."}
{"SMILES": "Cc1cnc2nc1Nc1cccc(c1)COC/C=C/COCc1cc(ccc1OCCN1CCOCC1)N2", "test": "binding, competition with immobilised ligand", "setting": "0.1 µM", "measurement": "remaining binding", "value": "95%"}
{"SMILES": "C=CC(=O)N1CCCC(n2c(=O)c3ncccc3n(Cc3ccc(Oc4ccccc4)cc3)c2=O)C1 (stereo not shown)", "test": "cell-free assay, competition with immobilised ligand", "setting": "1 µM", "measurement": "remaining binding", "value": "92%"}
{"SMILES": "NC(=O)[C@@H](O)C[C@H]1CCc2sc3ncnc(O[C@H]4CC[C@H](N5CCOCC5)CC4)c3c21", "test": "radioisotope kinase", "setting": "10 µM", "measurement": "inhibition", "value": "4%"}
{"SMILES": "CCN1CCN(Cc2ccc(C(=O)Nc3ccc(C)c(NCc4cnc5[nH]ccc5c4OC)c3)cc2C(F)(F)F)CC1", "test": "KINOMEscan", "setting": "1 µM", "measurement": "remaining binding", "value": "100%"}
{"SMILES": "Nc1ncc2c(n1)-c1c([nH]c3ccc(C4=CCOCC4)cc13)CCC2", "test": "scanMAX", "setting": "1 µM", "measurement": "remaining binding", "value": "77%"}
{"SMILES": "COc1c(Cl)cccc1Nc1c(-c2ccncc2C#C[C@@]2(C)CCCN2C(=O)/C=C/CN(C)C)[nH]c2c1C(=O)NCC2", "test": "binding, competition with immobilised ligand", "setting": "3 µM", "measurement": "remaining binding", "value": "64%"}
{"SMILES": "CC(C)=CC1OC(C)(C)C2C=C3C(=O)C(Cl)=CC(O)C3C3C(O)C4OC4C(=O)C132 (stereo not shown)", "test": "binder, KINOMEscan competition binding", "setting": "10 µM", "how to read": "reference: DMSO control", "measurement": "remaining binding", "value": "67%"}
{"SMILES": "C=CC(=O)N1Cc2nc(-c3cc(-c4cc(Cl)cnc4Cl)c(F)cc3F)n(-c3ccncn3)c2C1", "test": "cell-free assay", "setting": "1 µM", "measurement": "inhibition", "value": "0.3%"}
{"SMILES": "COc1cc(Nc2nccc(-c3cnn4nc(OC)ccc34)n2)cc(C(F)(F)F)c1", "test": "KINOMEscan", "setting": "1 µM, DMPK2 1000 nM", "measurement": "remaining binding", "value": "91%"}
{"SMILES": "CNC1C[S+]2CC[S+]3CC[S+](C1)[Ru-4]321([N]=C=S)[n]2c3ccc(OC)cc3c3c4c(c5cc(F)c[n+]1c5c32)C(=O)NC4=O (stereo not shown)", "test": "KinomeScan", "setting": "0.1 µM", "how to read": "reference: untreated", "measurement": "remaining binding", "value": "93%"}
{"SMILES": "COc1cc(Nc2nc(C)cc(-c3cnn4nc(OC)ccc34)n2)cc(C(F)(F)F)c1", "test": "inhibitor", "setting": "1 µM, DMPK2", "how to read": "reference: control", "measurement": "remaining activity", "value": "89%"}
{"SMILES": "C=CC(=O)N1CCc2ccc(-n3c(=O)ccc4cnc5ccc(-c6cnn(C)c6)cc5c43)cc21", "test": "KINOMEscan", "setting": "1 µM", "how to read": "reference: DMSO control", "measurement": "remaining binding", "value": "100%"}
{"SMILES": "Nc1ncc(-c2cc(-c3cnn(CC(F)(F)F)c3)ncc2F)nc1C(=O)NC1CNCC(F)C1 (stereo not shown)", "test": "enzyme activity", "setting": "1 µM", "how to read": "reference: DMSO control", "measurement": "remaining activity", "value": "86%"}
{"SMILES": "NC(=O)C[C@H]1CCc2sc3ncnc(O[C@H]4CC[C@H](N5CCOCC5)CC4)c3c21", "test": "radioisotope kinase", "setting": "10 µM", "measurement": "inhibition", "value": "-1%"}
{"SMILES": "O=C(Cc1ccc(OCc2ccccc2)cc1)NC1(C(=O)O)CCN(C(=O)c2ccc(-c3cccc(Cl)c3)cc2)CC1", "test": "enzyme activity, inhibitor", "setting": "10 µM", "measurement": "activity vs control", "value": "112%"}
{"SMILES": "CNC(=O)C1CCN(c2cc(C)c(F)cc2NC(=O)c2ccc(-c3cc(O)ccc3C)c(C)c2)CC1", "test": "KINOMEscan", "setting": "1 µM", "how to read": "reference: DMSO control", "measurement": "remaining binding", "value": "100%"}
{"SMILES": "CCn1cc(C(=O)O)c(=O)c2c(N)c(F)c(NC3CCCCC3)cc21", "test": "kinase activity", "setting": "0.1 µM, added: ATP at Km", "measurement": "inhibition", "value": "6.7%"}
{"SMILES": "CN1CCN(Cc2ccc(-c3ccc(CO[C@H]4CCC[C@@H]4NC(=O)c4cc(-c5cnn(C)c5)cnc4N)cc3)cc2)CC1", "test": "enzyme activity, inhibitor", "setting": "0.1 µM", "measurement": "inhibition", "value": "12%"}
{"SMILES": "Cc1ccc(-c2c(/C=C(\\C#N)C(=O)NC(C)C)n(CCCO)c3ncnc(N)c23)cc1", "test": "cell-free assay, competition with immobilised ligand", "setting": "1 µM", "measurement": "remaining binding", "value": "91%"}
{"note": "Some of these lines once more:"}
{"SMILES": "Nc1ncc2c(n1)-c1c([nH]c3ccc(C4=CCOCC4)cc13)CCC2", "test": "scanMAX", "setting": "1 µM", "measurement": "remaining binding", "value": "77%"}
{"SMILES": "COc1c(Cl)cccc1Nc1c(-c2ccncc2C#C[C@@]2(C)CCCN2C(=O)/C=C/CN(C)C)[nH]c2c1C(=O)NCC2", "test": "binding, competition with immobilised ligand", "setting": "3 µM", "measurement": "remaining binding", "value": "64%"}
{"SMILES": "CC(C)=CC1OC(C)(C)C2C=C3C(=O)C(Cl)=CC(O)C3C3C(O)C4OC4C(=O)C132 (stereo not shown)", "test": "binder, KINOMEscan competition binding", "setting": "10 µM", "how to read": "reference: DMSO control", "measurement": "remaining binding", "value": "67%"}
